Assay results from different studies.
Numbered parts are unrelated; each lists some results of a single study.

Sample 1
Target: RING finger protein unkempt homolog, zinc fingers 1-6, GST-SBP tag (UNK, Homo sapiens, UniProt Q9C0B0, residues 30-357)
Chain of UniProt Q9C0B0 (30-357, looked up): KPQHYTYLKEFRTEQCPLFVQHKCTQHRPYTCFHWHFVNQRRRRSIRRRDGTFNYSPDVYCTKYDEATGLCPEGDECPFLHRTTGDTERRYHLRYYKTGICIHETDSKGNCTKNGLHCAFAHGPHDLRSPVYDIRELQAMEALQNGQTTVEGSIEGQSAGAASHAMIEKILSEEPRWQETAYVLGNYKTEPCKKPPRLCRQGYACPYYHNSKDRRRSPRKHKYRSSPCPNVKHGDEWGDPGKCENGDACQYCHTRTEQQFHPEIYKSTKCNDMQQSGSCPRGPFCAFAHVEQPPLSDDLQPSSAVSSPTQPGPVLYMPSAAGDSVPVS
Method: RNA Bind-n-Seq
Molecule type: RNA
Matrix: in vitro
Concentration: not given
Setting: RNA with constant flanks, human-mouse chimeric sites, ends assumed
Reference: input RNA pool
Direction: higher = stronger binding
`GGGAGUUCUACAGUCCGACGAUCUACAUCACCAAUGUCCUACAAAAUCCUGAUUUGGCUCUGAGAAUGGCUGUGCGGAACAACUUAGCUGGUGCUGAAGAACUCUUUGCCCGGAAAUUUAAUGCUCUCUUCGCCCAGGGAAACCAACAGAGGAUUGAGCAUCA` gave a bound/input enrichment of 0.388 ratio.
`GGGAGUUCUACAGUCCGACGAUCGCAAAGGAUGAUGAGGCGGCAGCUGUUGCCCUUUCCUCCCUGAUUCAUGCUUUGGAUGACUUAGACAUGGUCGCCAUCGUCCGAUAUGCUUAUGACAAAAGAUCUAAUCCUCAAGUUGGUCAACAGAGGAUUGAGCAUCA` gave a bound/input enrichment of 0.108 ratio.
`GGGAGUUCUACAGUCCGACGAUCUCUUAACGUCCAUUUAAAACUUAUUUUUAUAGCUAGAUAAAUAUUGUUAGUCUUAGAGAGUAGUUCACAUUUUUUGAGAAGCAUGCCCUCCCUGUCCAUUUGUCUUAUAACAUGACCCAGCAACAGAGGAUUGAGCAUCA` has a bound/input enrichment of 28 ratio.
With `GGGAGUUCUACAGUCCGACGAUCCCCUCCCCGGGCCACCCACCCCUCCCGGCUCCCCGCCGAGAUCCAGGUUUCUUCUGUUUUCAUAGCAAAUAAGAAAAAUGUUCUACGCACAUUUUGUCCUCAGUAAACGAGGGCCUCUGGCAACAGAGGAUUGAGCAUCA` the bound/input enrichment was 0.44 ratio.
With `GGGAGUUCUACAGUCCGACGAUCAAAGUGGACUAUGGCGAGUACAUGGAUAAAAAUAAUGUGAGGCGGCAAGCAACAACAAUCAUAGCUGAUAACAUUAUAUUUCUGAGUGACCAGACAAAAGAAAAGGCAUAGAACGGAUGACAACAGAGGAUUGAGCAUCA` the bound/input enrichment was 1.59 ratio.

Sample 2
Substance: PhoQ, residues 284 288 289 292 302 303 SSYNSA
Method: Sort-seq
Item: YFP reporter
Matrix: E. coli
Setting: PhoQ-PhoP variant library
With: 10 µM Mg2+
Reference: high Mg2+ state
Direction: higher = stronger signaling
PhoP, residues 12 14 15 18 19 LHTVL (Escherichia coli, UniProt P23836) — fold induction: 24.9.
For PhoP, residues 12 14 15 18 19 TQAML (Escherichia coli, UniProt P23836): fold induction read 16.9.
The fold induction was 12.3 (PhoP, residues 12 14 15 18 19 NQCAL (Escherichia coli, UniProt P23836)).

Sample 3
Target: RNA binding protein fox-1 homolog 2, RRM domain, GST-SBP tag (RBFOX2, Homo sapiens, UniProt O43251-10, residues 100-194)
Method: RNA Bind-n-Seq
Molecule type: RNA
Matrix: in vitro
Concentration: 365 nM
Setting: natural RNA segment, single round, ends assumed
Reference: no-protein control
Direction: higher = stronger binding
Target sequence (chain): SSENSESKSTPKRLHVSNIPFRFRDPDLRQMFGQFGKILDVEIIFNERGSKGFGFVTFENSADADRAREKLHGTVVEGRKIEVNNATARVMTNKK
`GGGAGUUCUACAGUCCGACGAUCUCAACUAUUAGCAAAUUCCAUUUGGUGGCUUAGCAUUGGAAAGAACAGAUAAAGUAGCUGAUGCCUAGAAGAUCCUCUGCUUUUUCCGAUCCAGUGGUAGCCUUUGAUACUGGAAUUCUCGGGUGCCAA`: “RBNS enrichment (R)” 0.585.
`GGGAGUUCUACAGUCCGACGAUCAGGGAGGGGCCGAUGCUGCCACCACCCAGCCUUCUCUUUAUUUUCAGUGCUUUUUGUUUGGCCUCCCUGCCCCCAUGUUUUUCUGGCUGGGAGCUCUUGGUUACCCCCUUUGGAAUUCUCGGGUGCCAA` — result for “RBNS enrichment (R)”: 0.664.
`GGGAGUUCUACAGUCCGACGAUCCUGCGUGCCCCUGAACCUCUGUGCAGCCCGGAAGGCUGAUGUACAGGUGUACCUCAAUCCACAUUACAGCCAUGCUCCUAAUGUACAUGGACAUUUUUGUAACUCAGCUCUGGAAUUCUCGGGUGCCAA` — result for “RBNS enrichment (R)”: 0.444.
For `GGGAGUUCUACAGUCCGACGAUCGCUCUCAGGCCCUUCCUGAUGUGAUGAAUGAAUCUACUAAUCAUUUCUUGACCAUUCAUUUUAUCACUUCUAACCUUGAAACAUGUGGAAGUAGCUAUGUUCCUGACUGUUGGAAUUCUCGGGUGCCAA`, “RBNS enrichment (R)” read 0.383.
`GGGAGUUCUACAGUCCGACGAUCUUAUAACAUAUCCAGCCAUUUCAAUUUUGAUUGAAAUGAACUACAAAGAAUAGUGUUUGUCCCUAUGGUAGCCUCAGUCUCUUUAUCACUAACUUGGAUUGAAAUGAGUGUGGAAUUCUCGGGUGCCAA`: “RBNS enrichment (R)” 0.337.
Under “RBNS enrichment (R)”, `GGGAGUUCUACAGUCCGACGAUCAGCCCAACCACUCGGUUUCCUUCGGAUUUUCCUCCCUUUGUUCGGGGUUUGGUUUGGCUCCUCUGUGUGUGUCCGUAUCUUGUUCGGUGUCCUCGAGGUUGAGCUUCACUUGGAAUUCUCGGGUGCCAA` is recorded as 0.491.
`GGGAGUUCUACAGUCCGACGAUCUAUGGGGAAGCCCUUUGGCUUCAGAUUGCCUAUGUUUGAAUAAUAAUAAUAAUAGAUGGCCUAUUGUAAUGGUUAUGUUGCUUUUUUUCUUACCCUCCACCAGAGUCUUGUGGAAUUCUCGGGUGCCAA` — result for “RBNS enrichment (R)”: 0.879.
`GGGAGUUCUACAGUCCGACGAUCUAUAUAUAUUUUCCAGGUGGUUUUUAGUCUUUACUGAUGAAAGGGUGUUCAUGUUAGUUUCUUCAAAACCCUAUCUAAUACUAGGCAAAGUAGCCAAGAGCCUUUUGUUUUGGAAUUCUCGGGUGCCAA`: “RBNS enrichment (R)” 2.28.

Sample 4
Target: Ras GTPase-activating protein-binding protein 1, full length (G3BP1, Homo sapiens, UniProt Q13283)
Chain of UniProt Q13283 (whole entry, looked up): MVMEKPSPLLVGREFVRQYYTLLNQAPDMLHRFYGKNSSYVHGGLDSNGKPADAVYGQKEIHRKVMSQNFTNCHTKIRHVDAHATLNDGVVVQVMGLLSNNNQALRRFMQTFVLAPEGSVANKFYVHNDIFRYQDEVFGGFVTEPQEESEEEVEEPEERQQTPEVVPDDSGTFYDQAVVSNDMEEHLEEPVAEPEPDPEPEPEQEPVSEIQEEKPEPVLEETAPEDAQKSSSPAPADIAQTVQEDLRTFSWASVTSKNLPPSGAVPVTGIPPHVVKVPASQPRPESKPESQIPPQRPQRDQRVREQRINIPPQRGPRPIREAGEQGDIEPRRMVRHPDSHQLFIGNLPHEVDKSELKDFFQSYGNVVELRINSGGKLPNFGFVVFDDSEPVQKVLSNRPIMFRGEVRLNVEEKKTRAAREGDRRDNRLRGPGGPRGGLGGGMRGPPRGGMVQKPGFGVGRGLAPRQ
Method: RNA Bind-n-Seq
Molecule type: RNA
Matrix: in vitro
Concentration: 200 nM
Setting: whole 134-nt RNA, ends assumed
With: 150 mM KCl
Reference: input library
Direction: higher = stronger binding
For `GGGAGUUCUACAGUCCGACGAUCCUGUGCUACACAUCGUAUGUACCGAAUCGGGGUUUUUGGGGUUUUUUUGGGGUUUUUGGGGAAAGUAUUAUGUUACGCCGUUCGGAUCUGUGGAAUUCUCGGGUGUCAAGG`, the log2 enrichment was -0.328.
The log2 enrichment of `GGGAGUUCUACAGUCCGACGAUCUGGGAGGUGGAUUUUGUUUAUUUUUUUAGCUCAUUUCCAGGGGUGGGAAUUUGUUUUUAAUAUGUGUCAUGAAUAAAGUUGUUUUUGAAAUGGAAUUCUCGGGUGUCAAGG` is reported as -0.0268.
`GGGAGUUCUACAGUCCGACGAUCAAGUCCUGUGCUACACAUCGUAUGUACCGAAUCGGGUUUGGGAAAAAGGGUUUGGGAAAGUAUUAUGUUACGCCGUUCGGAUCUGCACUUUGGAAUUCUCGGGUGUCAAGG` has a log2 enrichment of 0.397.
`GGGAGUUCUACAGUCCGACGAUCUCAAGUCCUGUGCUACACAUCGUAUGUACCGAAUCGGGAAGGGGAAGGAAGGGGAAAGUAUUAUGUUACGCCGUUCGGAUCUGCACUUCCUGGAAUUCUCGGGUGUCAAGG` gave a log2 enrichment of 0.862.
`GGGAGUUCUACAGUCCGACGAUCCACAGACAACACGCACCCACACAGACACAGAGGGAAGGGGUUGGGACGGGGACAGGGUGCACAGCAGGGCGGGGUAGGACCCCAGCCCCUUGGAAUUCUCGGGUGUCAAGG` has a log2 enrichment of 1.84.
With `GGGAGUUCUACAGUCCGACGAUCUUGCUAAUCUAUAAAUUUUUUUUAUAUGAAAUAGCUCAUAGUCGGAAGCCGGCACCCUCAAAUGAGCCCGAAUAUCUAUGUAAAUGGAUGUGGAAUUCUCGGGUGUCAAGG` the log2 enrichment was -1.96.
`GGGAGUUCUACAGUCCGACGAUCUAACUUUAGAGGAGGAUCUGAUGGAUAUGGCAGUGGACGUGGAUUUGGGGAUAGCUAUAAUGGGUAUGGAGGAGGACCUGGAGGUGGCAAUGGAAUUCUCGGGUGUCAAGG` gave a log2 enrichment of 0.473.
`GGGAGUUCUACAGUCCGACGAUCUGGGAGGUGGAGUUUGUUUAUUUUUUUAGCUCAUUUCCAGGGGUGGGAAUUUUUUUUUAAUAUGUGUCAUGAAUAAAGUUGUUUUUGAAAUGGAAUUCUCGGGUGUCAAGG` gave a log2 enrichment of 0.0958.
For `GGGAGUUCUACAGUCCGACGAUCCAAGUCCUGUGCUACACAUCGUAUGUACCGAAUCGGGGUUUGGGGAGGGGAGGGGAAAGUAUUAUGUUACGCCGUUCGGAUCUGCACUUCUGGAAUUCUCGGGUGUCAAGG`, the log2 enrichment was 1.26.

Excerpt of the above (sample 4):
For `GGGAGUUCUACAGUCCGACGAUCCUGUGCUACACAUCGUAUGUACCGAAUCGGGGUUUUUGGGGUUUUUUUGGGGUUUUUGGGGAAAGUAUUAUGUUACGCCGUUCGGAUCUGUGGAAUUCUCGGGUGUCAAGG`, the log2 enrichment was -0.328.
`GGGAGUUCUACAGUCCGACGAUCUCAAGUCCUGUGCUACACAUCGUAUGUACCGAAUCGGGAAGGGGAAGGAAGGGGAAAGUAUUAUGUUACGCCGUUCGGAUCUGCACUUCCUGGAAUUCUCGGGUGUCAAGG` gave a log2 enrichment of 0.862.
